Assay results gathered from unrelated publications.
Protocols differ between the studies behind these lines. ± gives the spread as reported.

Compound = O=C(O)c1ccc(-c2nc(-c3ccccc3Cl)c3sccn23)cc1; system = human liver microsomes; conditions = 1 µM; half-life = 1 h
Compound = CCOC(=O)Nc1ccc2c(c1)CN1C(=S)N(c3ccc(C#N)c(C(F)(F)F)c3)C(=O)C1C2 (centres unmarked); conditions = oral, 5 mg/kg; half-life = 15.3 ± 1.33 h
Compound = CC[C@H](C)[C@H](NC(=O)[C@H](CCC(N)=O)NC(=O)[C@H](Cc1c[nH]cn1)NC(=O)[C@H](C)NC(=O)[C@H](CC(C)C)NC(=O)[C@H](CCCCN)NC(=O)[C@H](CCC(N)=O)NC(=O)[C@@H](NC(=O)[C@@H](NC(=O)[C@@H]1CSSC[C@H](NC(=O)CNC(=O)[C@H](Cc2ccccc2)NC(=O)[C@H](CO)NC(=O)[C@H](CCCNC(=N)N)NC(=O)[C@H](CC(C)C)NC(=O)CNC(=O)[C@H](CCC(N)=O)NC(=O)[C@H](Cc2ccccc2)NC(=O)[C@H](CC(N)=O)NC(=O)[C@H](CC(N)=O)NC(=O)[C@H](CCSC)NC(=O)[C@H](CO)NC(=O)[C@H](CCC(N)=O)NC(=O)[C@H](CCCNC(=N)N)NC(=O)[C@@H](N)Cc2ccc(O)cc2)C(=O)N[C@@H](CCCNC(=N)N)C(=O)N[C@@H](Cc2ccccc2)C(=O)NCC(=O)N[C@@H]([C@@H](C)O)C(=O)N1)[C@@H](C)O)C(C)C)C(=O)N[C@@H](Cc1ccc(O)cc1)C(=O)N[C@@H](CCC(N)=O)C(=O)N[C@@H](Cc1ccccc1)C(=O)N[C@H](C(=O)N[C@@H](CC(=O)O)C(=O)N[C@@H](CCCCN)C(=O)N[C@@H](CC(=O)O)C(=O)N[C@@H](CCCCN)C(=O)N[C@@H](CC(=O)O)C(=O)N[C@@H](CC(N)=O)C(=O)N[C@H](C(=O)N[C@@H](C)C(=O)N1CCC[C@H]1C(=O)N[C@@H](CCCNC(=N)N)C(=O)N[C@@H](CO)C(=O)N[C@@H](CCCCN)C(=O)N[C@H](C(=O)N[C@@H](CO)C(=O)N1CCC[C@H]1C(=O)N[C@@H](CCC(N)=O)C(=O)NCC(=O)N[C@@H](Cc1ccc(O)cc1)C(=O)NCC(=O)O)[C@@H](C)CC)C(C)C)[C@@H](C)O; system = diluted human serum; conditions = 1 ng/mL, ambient temperature; half-life = 0.26 h
Compound = CSCC[C@@H]1NC(=O)[C@H](Cc2ccccc2)NC(=O)CNC(=O)[C@H](NC(=O)[C@@H](N)Cc2ccc(O)cc2)CSSC[C@@H](C(=O)N[C@@H](Cc2c[nH]c3ccccc23)C(=O)NCc2cc(C(F)(F)F)cc(C(F)(F)F)c2)NC(=O)[C@@H]2CCCN2C1=O; system = rat plasma; conditions = 50 µg/mL, 37 °C; half-life = > 6 h
Compound = CSCC[C@H](NC(=O)[C@H](CO)NC(=O)[C@H](CCC(N)=O)NC(=O)[C@H](CCC(=O)O)NC(=O)[C@H](CCC(=O)O)NC(=O)CNC(=O)[C@H](CSSC[C@H](NC(=O)[C@H](CCCNC(=N)N)NC(=O)[C@@H]1CCCN1C(=O)[C@H](Cc1c[nH]cn1)NC(=O)[C@H](Cc1c[nH]c2ccccc12)NC(=O)[C@H](CCCCN)NC(=O)[C@H](Cc1ccccc1)NC(=O)[C@H](CC(C)C)NC(=O)CN)C(=O)NCC(=O)N[C@@H](CCC(=O)O)C(=O)N[C@@H](CCC(=O)O)C(=O)N[C@@H](CCC(N)=O)C(=O)N[C@@H](CO)C(=O)N[C@@H](CCSC)C(=O)N[C@@H](Cc1c[nH]c2ccccc12)C(=O)N[C@H](C(=O)O)[C@@H](C)O)NC(=O)[C@H](CCCNC(=N)N)NC(=O)[C@@H]1CCCN1C(=O)[C@H](Cc1c[nH]cn1)NC(=O)[C@H](Cc1c[nH]c2ccccc12)NC(=O)[C@H](CCCCN)NC(=O)[C@H](Cc1ccccc1)NC(=O)[C@H](CC(C)C)NC(=O)CN)C(=O)N[C@@H](Cc1c[nH]c2ccccc12)C(=O)N[C@H](C(=O)O)[C@@H](C)O; assay = HPLC; system = plasma; conditions = 37 °C; half-life = 1.86 h
Compound = CC[C@H](C)[C@@H]1NC(=O)[C@H](CO)NC(=O)CC(CCCCN)NC(=O)[C@@H]2CSSC[C@@H](C(=O)N[C@@H](Cc3ccc(O)cc3)C(N)=O)NC(=O)[C@H](CCCCN)NC(=O)[C@@H]3CSSC[C@H](NC(=O)[C@H](CCCNC(=N)N)NC(=O)CC(CC(C)C)NC(=O)[C@H](CC(=O)O)NC(=O)[C@H](CC(=O)O)NC(=O)[C@H](CCC(=O)O)NC(=O)[C@H](CC(N)=O)NC(=O)[C@H](Cc4c[nH]c5ccccc45)NC(=O)[C@@H]4CCCN4C(=O)CNC(=O)[C@H](CC(N)=O)NC(=O)[C@@H](NC(=O)CNC(=O)[C@H](Cc4ccccc4)NC(=O)CN)CSSC[C@H](NC(=O)[C@H](Cc4ccc(O)cc4)NC(=O)CNC(=O)CNC(=O)[C@H](CCCCN)NC(=O)[C@H](Cc4ccc(O)cc4)NC(=O)CNC(=O)[C@H](CCCCN)NC1=O)C(=O)N[C@@H](C)C(=O)N[C@@H](CCCCN)C(=O)NCC(=O)NCC(=O)N[C@@H](Cc1ccccc1)C(=O)N[C@@H](C(C)C)C(=O)N3)C(=O)N[C@@H](Cc1c[nH]cn1)C(=O)NC(CC(N)=O)CC(=O)N[C@@H](Cc1c[nH]cn1)C(=O)N2 (some centres unmarked); assay = HPLC; system = trypsin digestion; conditions = 13.2 µM, pH 8.5, room temperature, with: trypsin 0.9 µM; half-life = 0.09 h
Compound = N#Cc1ccccn1; conditions = pH 7.4; half-life = 833 h
Compound = CC[C@H](C)[C@H](NC(=O)[C@@H](Cc1ccccc1)NC)C(=O)N[C@@H](CO)C(=O)N[C@H](CCCNC(=N)N)C(=O)N[C@@H](C(=O)N[C@H](C(=O)OC[C@H](N)C(=O)N[C@H]1C(=O)N[C@@H](C)C(=O)N[C@@H](C2CCCCC2)C(=O)N[C@@H]([C@@H](C)CC)C(=O)O[C@H]1C)[C@@H](C)CC)[C@@H](C)CC; assay = conversion to teixobactin; system = phosphate buffer; conditions = pH 7.4, room temperature; half-life = 0.733 h
Compound = CC[C@H](C)[C@H](NC(=O)[C@H](CCCN)NC(=O)[C@H](CCCNC(=N)N)NC(=O)[C@@H]1CCCN1C(=O)[C@@H]1CCCN1C(=O)[C@H](CCCNC(=N)N)NC(=O)[C@@H]1CCCN1C(=O)[C@H](CCCNC(=N)N)NC(=O)[C@@H]1CCCN1C(=O)[C@H](CC(C)C)NC(=O)[C@H](Cc1ccc(O)cc1)NC(=O)[C@@H]1CCCN1C(=O)[C@@H]1CCCN1C(=O)[C@H](CCCCN)NC(=O)[C@H](CC(=O)O)NC(=O)[C@@H](N)C(C)C)C(=O)N[C@@H](Cc1ccc(O)cc1)C(=O)N[C@@H](CC(N)=O)C(=O)N[C@@H](CCCN)C(N)=O; system = Escherichia coli BW25113 lysate; conditions = 31.5 µM; half-life = ~1.33 h
Compound = N[C@@H](Cc1ccc(O)cc1)C(=O)N[C@@H]1CSCc2ccccc2CSC[C@@H](NC(=O)[C@@H](N)Cc2ccc(O)cc2)C(=O)NCC(=O)N[C@@H](Cc2ccc(F)cc2)C(=O)NNC(=O)[C@H](Cc2ccc(F)cc2)NC(=O)CNC1=O; assay = LC-MS; system = human plasma; conditions = 5 µM, 37 °C; half-life = > 1 h
Compound = C=C1NC(=O)CNC(=O)[C@H](CC(N)=O)NC(=O)[C@H](CC(C)C)NC(=O)CNC(=O)[C@H](CCCCN)NC(=O)[C@H](C)NC(=O)[C@H]([C@@H](C)CC)NC(=O)[C@H](CO)NC(=O)[C@H](Cc2c[nH]c3ccccc23)NC(=O)[C@H](C)NC(=O)[C@H](Cc2c[nH]c3ccccc23)NC(=O)c2ccc(-c3nc(C(=O)OC)cs3)nc2-c2csc1n2; assay = LC-MS; system = human serum; conditions = pH 7.6, 37 °C; half-life = 14 h
Compound = O=c1[nH]c2ccccc2c(=O)o1; assay = reactivity with N-α-acetyl-lysine, HPLC-MS; conditions = pH 10.2; half-life = < 0.0167 h
Compound = CC[C@H](C)[C@@H]1NC(=O)[C@H](Cc2ccc(O)cc2)NC(=O)[C@@H](N)CSCSC[C@@H](C(=O)N2CCC[C@H]2C(=O)N[C@@H](CC(C)C)C(=O)NCC(N)=O)NC(=O)[C@H](CC(N)=O)NC(=O)[C@H](CCC(N)=O)NC1=O; system = phosphate buffer; conditions = 0.1 mg/mL, pH 4.5, 55 °C; half-life = 778 h
Compound = CC[C@H](C)[C@@H]1NC(=O)[C@H](CO)NC(=O)C(C)(CCCCN)NC(=O)[C@@H]2CSSC[C@@H](C(=O)N[C@@H](Cc3ccc(O)cc3)C(N)=O)NC(=O)[C@H](CCCCN)NC(=O)[C@@H]3CSSC[C@H](NC(=O)[C@H](CCCNC(=N)N)NC(=O)C(C)(CC(C)C)NC(=O)[C@H](CC(=O)O)NC(=O)[C@H](CC(=O)O)NC(=O)[C@H](CCC(=O)O)NC(=O)[C@H](CC(N)=O)NC(=O)[C@H](Cc4c[nH]c5ccccc45)NC(=O)C(C)(CC)NC(=O)CNC(=O)[C@H](CC(N)=O)NC(=O)[C@@H](NC(=O)CNC(=O)[C@H](Cc4ccccc4)NC(=O)CN)CSSC[C@H](NC(=O)[C@H](Cc4ccc(O)cc4)NC(=O)CNC(=O)CNC(=O)[C@H](CCCCN)NC(=O)[C@H](Cc4ccc(O)cc4)NC(=O)[C@H]4CCCN4C(=O)[C@@H]4CCCN4C1=O)C(=O)N[C@@H](C)C(=O)N[C@@H](CCCCN)C(=O)N1CCC[C@@H]1C(=O)NCC(=O)N[C@@H](Cc1ccccc1)C(=O)N[C@@H](C(C)C)C(=O)N3)C(=O)N[C@@H](Cc1c[nH]cn1)C(=O)NC(C)(C)C(=O)N[C@@H](Cc1c[nH]cn1)C(=O)N2 (some centres unmarked); system = pronase; conditions = 13.2 µM, pH 7.2, room temperature; half-life = 6.1 h
Compound = CC(C)C(=O)OC[C@H]1O[C@@](C#N)(n2ccc(N)nc2=O)[C@H](O)[C@@H]1O; assay = plasma stability; system = mouse plasma; conditions = conversion to CNC metabolite; half-life = < 0.0833 h
Compound = C=C1NC(=O)CNC(=O)[C@H](CCCNC(=N)N)NC(=O)[C@H](Cc2ccc(O)cc2)NC(=O)[C@H](CC(C)C)NC(=O)[C@H](CO)NC(=O)[C@H](CCCCN)NC(=O)[C@H](CC(N)=O)NC(=O)CNC(=O)[C@H](Cc2ccccc2)NC(=O)[C@H](Cc2c[nH]c3ccccc23)NC(=O)[C@H](Cc2c[nH]c3ccccc23)NC(=O)c2ccc(-c3nc(C(=O)OC)cs3)nc2-c2csc1n2; assay = LC-MS; system = human serum; conditions = pH 7.6, 37 °C; half-life = 0.61 ± 0.02 h
Compound = CC[C@H](C)[C@@H]1NC(=O)[C@H](CO)NC(=O)[C@H](CCCCN)NC(=O)[C@@H]2CSSC[C@@H](C(=O)N[C@@H](Cc3ccc(O)cc3)C(N)=O)NC(=O)[C@H](CCCCN)NC(=O)[C@@H]3CSSC[C@H](NC(=O)[C@H](CCCNC(=N)N)NC(=O)[C@H](CC(C)C)NC(=O)[C@H](CC(=O)O)NC(=O)[C@H](CC(=O)O)NC(=O)[C@H](CCC(=O)O)NC(=O)[C@H](CC(N)=O)NC(=O)[C@H](Cc4c[nH]c5ccccc45)NC(=O)[C@@H]4CCCN4C(=O)CNC(=O)[C@H](CC(N)=O)NC(=O)[C@@H](NC(=O)CNC(=O)[C@H](Cc4ccccc4)NC(=O)CN)CSSC[C@H](NC(=O)[C@H](Cc4ccc(O)cc4)NC(=O)CNC(=O)CNC(=O)[C@H](CCCCN)NC(=O)[C@H](Cc4ccc(O)cc4)NC(=O)CNC(=O)[C@H](CCCCN)NC1=O)C(=O)N[C@@H](C)C(=O)N[C@@H](CCCCN)C(=O)NCC(=O)NCC(=O)N[C@@H](Cc1ccccc1)C(=O)N[C@@H](C(C)C)C(=O)N3)C(=O)N[C@@H](Cc1c[nH]cn1)C(=O)N[C@@H](CC(N)=O)C(=O)N[C@@H](Cc1c[nH]cn1)C(=O)N2; assay = HPLC; system = trypsin digestion; conditions = 13.2 µM, pH 8.5, room temperature, with: trypsin 0.9 µM; half-life = 1.3 h
